Earlier results, collected from citations in different studies.
Protocols differ between the studies behind these lines. ± marks the error that the study gave. Converted amounts (≈) assume the structure as drawn.
Sequence of UniProt Q9UQM7 (whole entry, looked up): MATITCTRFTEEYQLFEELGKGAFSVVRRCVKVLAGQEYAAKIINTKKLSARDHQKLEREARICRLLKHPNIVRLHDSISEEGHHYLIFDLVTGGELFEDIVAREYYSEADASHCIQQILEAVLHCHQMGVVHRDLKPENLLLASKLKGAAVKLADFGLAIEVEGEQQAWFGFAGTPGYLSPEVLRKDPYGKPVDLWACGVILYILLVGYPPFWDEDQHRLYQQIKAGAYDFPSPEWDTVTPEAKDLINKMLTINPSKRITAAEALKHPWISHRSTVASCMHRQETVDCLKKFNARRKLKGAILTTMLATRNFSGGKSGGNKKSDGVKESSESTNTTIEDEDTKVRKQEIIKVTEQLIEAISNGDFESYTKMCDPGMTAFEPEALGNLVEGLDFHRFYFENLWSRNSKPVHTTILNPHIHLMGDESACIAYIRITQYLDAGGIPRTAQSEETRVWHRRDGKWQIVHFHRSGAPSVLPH

| SMILES | tested on | assay | system | conditions | scale | measurement | result |
| --- | --- | --- | --- | --- | --- | --- | --- |
| COC(=O)C1=C(C)NC(C)=C(C(=O)OC)C1c1c(-c2cc(OC)c(OC)c(OC)c2)nc2sc(Cl)cn12 | – | – | guinea pig right atrium | 5 µM, spontaneously beating | relative to: control | decrease in atrial rate | 25 ± 1.5% |
| OCc1cc(C(O)CNCCCCCCOCCCCc2ccccc2)ccc1O (centres unmarked) | – | – | COPD patients | inhaled, 75 µg single, 12 h post-dose | relative to: placebo | trough FEV1 change from baseline | 117 mL |
| COC(=O)C1=C(C)NC(C)=C(C(=O)OC)C1c1c(-c2cc(OC)c(OC)cc2[N+](=O)[O-])nc2sccn12 | – | – | guinea pig left atrium | 50 µM, paced at 1 Hz | relative to: control | decrease in developed tension | 91 ± 1.4% |
| Clc1cccc(Nc2ccc3c(N4CCCCC4)ncnc3n2)c1 | Plasmodium falciparum | whole cell extended time | 3D7 | 72 h | – | IC50 | 580 nM |
| CC(C)c1cc(Oc2c(Cl)cc(-n3nc(C#N)c(=O)[nH]c3=O)cc2Cl)n[nH]c1=O | – | – | human, MASH patients | dose not given | relative to: patients | fibrosis improvement by one stage | ≤ 26% |
| Nc1cc(C(F)(F)F)c(-c2nc(N3CCOCC3)nc(N3CCOCC3)n2)cn1 | CAMK2A (Homo sapiens, UniProt Q9UQM7) | enzyme activity | – | 10 µM | relative to: untreated | remaining activity | 88% |
| C=CCc1ccc(O)c(OC)c1 | – | ABTS radical scavenging | – | – | – | IC50 | 7.84 µg/mL |
| COC(=O)C1=C(C)NC(C)=C(C(=O)OC)C1c1c(-c2cc(OC)ccc2OC)nc2sc(C)cn12 | – | decrease in atrial rate | guinea pig right atrium | – | – | EC50 | 6610 nM |
| CCN(c1cc(-c2ccc(CN3CCOCC3)cc2)cc(C(=O)NCc2c(C)cc(C)[nH]c2=O)c1C)C1CCOCC1 | – | – | epithelioid sarcoma patients | dose not given, 32 weeks | – | disease control rate | 26% |
| CC(C)(C)NCC(O)c1ccc(O)c(CO)c1 (centres unmarked) | – | – | COPD patients | 1 mg single, 6 h, day 1 | relative to: baseline, placebo-corrected | trough FEV1 change | 47 mL |
| CCNCCCNCCCNCCCNCC | – | – | human patients | dose not given, once daily | – | patients with tumour growth control | ~10% |
| C[C@H]1COCCN1c1nc(-c2cnc(N)cc2C(F)F)nc(N2CCOCC2)n1 | SJCRH30 | – | – | – | – | GI50 | 442 nM |
| O=c1[nH]cc(F)c(=O)[nH]1 | – | – | metastatic pancreatic cancer patients | dose not given | – | overall tumour response rate | 0% |
| CC1(C)S[C@@H]2[C@H](NC(=O)[C@H](N)c3ccccc3)C(=O)N2[C@H]1C(=O)O | Pseudomonas aeruginosa | – | clinical isolate RKI-No_470/12 | – | – | MIC | > 16 µg/mL |
| COC(=O)C1=C(C)NC(C)=C(C(=O)OC)C1c1c(-c2cccc(OC(F)(F)F)c2)nc2sccn12 | – | negative inotropic effect | guinea pig, isolated left atrium | – | – | EC50 | 830 nM |
| CNC(C)C1CCC(N)C(OC2C(N)CC(N)C(OC3OCC(C)(O)C(NC)C3O)C2O)O1 (centres unmarked) | Pseudomonas aeruginosa | – | clinical isolate RKI-No_627/13 | – | – | MIC | 2 µg/mL (≈ 4.19 µM) |
| Nc1cccc2c1C(=O)N(C1CCC(=O)NC1=O)C2=O (centres unmarked) | – | – | relapsed refractory multiple myeloma patients | dose not given, trial | – | median progression-free survival | 2.6 months |

Some of these lines once more:
| SMILES | tested on | assay | system | conditions | scale | measurement | result |
| --- | --- | --- | --- | --- | --- | --- | --- |
| Nc1cccc2c1C(=O)N(C1CCC(=O)NC1=O)C2=O (centres unmarked) | – | – | relapsed refractory multiple myeloma patients | dose not given, trial | – | median progression-free survival | 2.6 months |
| CNC(C)C1CCC(N)C(OC2C(N)CC(N)C(OC3OCC(C)(O)C(NC)C3O)C2O)O1 (centres unmarked) | Pseudomonas aeruginosa | – | clinical isolate RKI-No_627/13 | – | – | MIC | 2 µg/mL (≈ 4.19 µM) |
